Measured values collected from several papers.
Compare with care: the assays were run in different laboratories. “And” joins repeats or separate records; there may be more than shown. Numbers after ± are the reported error.
Grm2: Metabotropic glutamate receptor 2 (Grm2, Rattus norvegicus, UniProt P31421)
GLP1R: Glucagon-like peptide 1 receptor (GLP1R, Homo sapiens, UniProt P43220)
MIPEP: Mitochondrial intermediate peptidase (MIPEP, Homo sapiens, UniProt Q99797)
Lysophospholipase-like protein 1: Lysophospholipase-like protein 1 (Mus musculus, UniProt Q3UFF7)
E3 ubiquitin-protein ligase NEDD4: E3 ubiquitin-protein ligase NEDD4 (Homo sapiens, UniProt P46934)
MAPK8: Mitogen-activated protein kinase 8 (MAPK8, Homo sapiens, UniProt P45983)
GRM4: Metabotropic glutamate receptor 4 (GRM4, Homo sapiens, UniProt Q14833)
RPA1 N-terminal domain: Replication protein A 70 kDa DNA-binding subunit, N-terminal domain (RPA1, Homo sapiens, UniProt P27694)

The chains behind the UniProt entries cited, without tags or fusion partners. Residues count along the entry.
UniProt P43220, whole entry, looked up: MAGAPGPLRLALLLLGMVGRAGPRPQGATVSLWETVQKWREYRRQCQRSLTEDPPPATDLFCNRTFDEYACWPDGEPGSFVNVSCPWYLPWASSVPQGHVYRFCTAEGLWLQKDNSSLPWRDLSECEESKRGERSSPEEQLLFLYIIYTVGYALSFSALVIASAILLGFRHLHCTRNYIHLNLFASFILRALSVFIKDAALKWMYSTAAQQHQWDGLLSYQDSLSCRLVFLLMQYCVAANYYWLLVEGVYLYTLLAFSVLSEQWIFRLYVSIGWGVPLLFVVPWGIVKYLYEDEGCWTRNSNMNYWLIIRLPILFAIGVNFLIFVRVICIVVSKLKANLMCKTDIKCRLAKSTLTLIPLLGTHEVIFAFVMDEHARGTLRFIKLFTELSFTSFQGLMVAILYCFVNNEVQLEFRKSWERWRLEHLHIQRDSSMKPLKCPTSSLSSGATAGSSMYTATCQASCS
UniProt P46934, whole entry, looked up: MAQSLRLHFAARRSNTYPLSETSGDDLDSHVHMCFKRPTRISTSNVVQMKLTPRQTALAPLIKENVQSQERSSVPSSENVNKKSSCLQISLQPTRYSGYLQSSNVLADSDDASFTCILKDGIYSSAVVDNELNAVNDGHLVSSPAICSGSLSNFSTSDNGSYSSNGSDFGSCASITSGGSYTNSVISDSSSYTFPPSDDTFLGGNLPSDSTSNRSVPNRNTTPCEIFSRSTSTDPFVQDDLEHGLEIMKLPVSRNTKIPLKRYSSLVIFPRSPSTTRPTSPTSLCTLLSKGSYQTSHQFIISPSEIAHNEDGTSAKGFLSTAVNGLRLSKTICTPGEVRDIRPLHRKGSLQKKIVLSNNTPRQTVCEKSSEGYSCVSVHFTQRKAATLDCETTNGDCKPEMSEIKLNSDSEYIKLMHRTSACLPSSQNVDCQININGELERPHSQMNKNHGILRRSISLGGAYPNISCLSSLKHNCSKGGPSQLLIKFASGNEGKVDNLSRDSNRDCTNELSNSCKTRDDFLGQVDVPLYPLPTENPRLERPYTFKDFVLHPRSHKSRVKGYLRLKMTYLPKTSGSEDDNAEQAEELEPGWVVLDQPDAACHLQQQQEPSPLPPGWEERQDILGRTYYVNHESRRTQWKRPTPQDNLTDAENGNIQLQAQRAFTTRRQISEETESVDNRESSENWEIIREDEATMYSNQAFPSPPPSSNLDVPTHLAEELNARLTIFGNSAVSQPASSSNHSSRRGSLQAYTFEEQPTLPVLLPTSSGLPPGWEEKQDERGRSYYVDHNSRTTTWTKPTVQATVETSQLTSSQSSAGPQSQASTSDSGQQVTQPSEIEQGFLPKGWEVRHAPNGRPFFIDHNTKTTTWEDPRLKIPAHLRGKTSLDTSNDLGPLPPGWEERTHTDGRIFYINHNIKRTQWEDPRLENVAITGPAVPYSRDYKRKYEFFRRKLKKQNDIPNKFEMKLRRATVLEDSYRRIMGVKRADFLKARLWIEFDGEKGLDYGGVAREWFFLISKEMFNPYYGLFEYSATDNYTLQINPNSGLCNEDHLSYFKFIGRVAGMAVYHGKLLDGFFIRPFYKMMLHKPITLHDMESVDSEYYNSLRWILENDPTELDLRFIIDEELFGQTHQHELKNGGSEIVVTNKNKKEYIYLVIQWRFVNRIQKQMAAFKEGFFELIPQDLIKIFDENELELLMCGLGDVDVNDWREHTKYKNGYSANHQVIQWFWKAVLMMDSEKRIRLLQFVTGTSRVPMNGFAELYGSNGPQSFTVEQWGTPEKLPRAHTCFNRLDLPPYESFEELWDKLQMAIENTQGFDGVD
UniProt P45983, 1-384 isoform 3: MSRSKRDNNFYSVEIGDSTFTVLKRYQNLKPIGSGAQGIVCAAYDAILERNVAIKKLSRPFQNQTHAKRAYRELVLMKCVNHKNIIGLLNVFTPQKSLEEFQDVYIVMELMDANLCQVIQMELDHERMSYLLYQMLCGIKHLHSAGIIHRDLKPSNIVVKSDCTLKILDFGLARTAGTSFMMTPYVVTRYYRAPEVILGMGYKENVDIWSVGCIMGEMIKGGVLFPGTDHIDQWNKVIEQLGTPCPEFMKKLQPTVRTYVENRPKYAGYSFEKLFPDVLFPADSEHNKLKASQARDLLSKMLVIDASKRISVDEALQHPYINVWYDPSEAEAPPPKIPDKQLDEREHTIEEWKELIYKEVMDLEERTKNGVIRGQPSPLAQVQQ
UniProt Q14833, 33-912 limits assumed: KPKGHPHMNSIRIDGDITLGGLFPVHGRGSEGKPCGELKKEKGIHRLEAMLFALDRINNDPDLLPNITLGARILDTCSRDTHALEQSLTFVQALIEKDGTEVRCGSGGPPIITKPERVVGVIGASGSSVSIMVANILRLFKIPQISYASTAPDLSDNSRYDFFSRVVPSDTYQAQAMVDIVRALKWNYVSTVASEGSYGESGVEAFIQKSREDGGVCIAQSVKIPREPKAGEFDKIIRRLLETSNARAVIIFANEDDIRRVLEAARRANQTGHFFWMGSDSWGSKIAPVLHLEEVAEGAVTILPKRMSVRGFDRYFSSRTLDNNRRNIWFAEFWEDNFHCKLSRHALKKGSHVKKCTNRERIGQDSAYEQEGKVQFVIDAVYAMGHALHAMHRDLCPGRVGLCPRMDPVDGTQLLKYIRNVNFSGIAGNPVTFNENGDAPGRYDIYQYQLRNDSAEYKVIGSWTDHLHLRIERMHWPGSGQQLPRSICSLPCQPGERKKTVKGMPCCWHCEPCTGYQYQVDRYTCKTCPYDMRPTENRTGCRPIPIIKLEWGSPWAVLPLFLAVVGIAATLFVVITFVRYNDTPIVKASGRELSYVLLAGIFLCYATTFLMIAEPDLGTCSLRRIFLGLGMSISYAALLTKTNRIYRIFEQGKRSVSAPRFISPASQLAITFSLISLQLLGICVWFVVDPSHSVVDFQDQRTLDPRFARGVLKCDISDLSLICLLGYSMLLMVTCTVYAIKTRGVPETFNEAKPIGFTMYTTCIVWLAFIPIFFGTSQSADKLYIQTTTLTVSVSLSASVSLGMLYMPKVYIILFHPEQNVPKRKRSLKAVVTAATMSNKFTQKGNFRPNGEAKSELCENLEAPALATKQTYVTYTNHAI
UniProt Q06187, whole entry: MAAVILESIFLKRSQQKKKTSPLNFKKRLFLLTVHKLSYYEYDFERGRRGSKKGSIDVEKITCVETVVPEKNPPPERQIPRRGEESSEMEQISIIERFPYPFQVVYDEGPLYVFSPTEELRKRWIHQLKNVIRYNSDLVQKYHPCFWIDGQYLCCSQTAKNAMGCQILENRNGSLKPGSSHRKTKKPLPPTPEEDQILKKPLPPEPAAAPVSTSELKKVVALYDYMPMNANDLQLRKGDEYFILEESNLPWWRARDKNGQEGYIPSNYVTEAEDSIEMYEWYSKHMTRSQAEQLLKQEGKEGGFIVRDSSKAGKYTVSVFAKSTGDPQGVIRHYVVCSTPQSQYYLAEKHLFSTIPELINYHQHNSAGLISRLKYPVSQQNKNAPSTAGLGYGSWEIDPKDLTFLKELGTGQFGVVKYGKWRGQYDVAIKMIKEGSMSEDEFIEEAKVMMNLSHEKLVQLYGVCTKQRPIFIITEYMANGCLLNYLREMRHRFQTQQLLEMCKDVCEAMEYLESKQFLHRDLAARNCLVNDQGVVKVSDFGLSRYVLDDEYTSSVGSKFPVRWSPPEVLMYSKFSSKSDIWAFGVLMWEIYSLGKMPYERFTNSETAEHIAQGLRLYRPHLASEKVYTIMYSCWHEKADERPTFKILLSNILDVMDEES
UniProt P31424, 21-1203 limits assumed: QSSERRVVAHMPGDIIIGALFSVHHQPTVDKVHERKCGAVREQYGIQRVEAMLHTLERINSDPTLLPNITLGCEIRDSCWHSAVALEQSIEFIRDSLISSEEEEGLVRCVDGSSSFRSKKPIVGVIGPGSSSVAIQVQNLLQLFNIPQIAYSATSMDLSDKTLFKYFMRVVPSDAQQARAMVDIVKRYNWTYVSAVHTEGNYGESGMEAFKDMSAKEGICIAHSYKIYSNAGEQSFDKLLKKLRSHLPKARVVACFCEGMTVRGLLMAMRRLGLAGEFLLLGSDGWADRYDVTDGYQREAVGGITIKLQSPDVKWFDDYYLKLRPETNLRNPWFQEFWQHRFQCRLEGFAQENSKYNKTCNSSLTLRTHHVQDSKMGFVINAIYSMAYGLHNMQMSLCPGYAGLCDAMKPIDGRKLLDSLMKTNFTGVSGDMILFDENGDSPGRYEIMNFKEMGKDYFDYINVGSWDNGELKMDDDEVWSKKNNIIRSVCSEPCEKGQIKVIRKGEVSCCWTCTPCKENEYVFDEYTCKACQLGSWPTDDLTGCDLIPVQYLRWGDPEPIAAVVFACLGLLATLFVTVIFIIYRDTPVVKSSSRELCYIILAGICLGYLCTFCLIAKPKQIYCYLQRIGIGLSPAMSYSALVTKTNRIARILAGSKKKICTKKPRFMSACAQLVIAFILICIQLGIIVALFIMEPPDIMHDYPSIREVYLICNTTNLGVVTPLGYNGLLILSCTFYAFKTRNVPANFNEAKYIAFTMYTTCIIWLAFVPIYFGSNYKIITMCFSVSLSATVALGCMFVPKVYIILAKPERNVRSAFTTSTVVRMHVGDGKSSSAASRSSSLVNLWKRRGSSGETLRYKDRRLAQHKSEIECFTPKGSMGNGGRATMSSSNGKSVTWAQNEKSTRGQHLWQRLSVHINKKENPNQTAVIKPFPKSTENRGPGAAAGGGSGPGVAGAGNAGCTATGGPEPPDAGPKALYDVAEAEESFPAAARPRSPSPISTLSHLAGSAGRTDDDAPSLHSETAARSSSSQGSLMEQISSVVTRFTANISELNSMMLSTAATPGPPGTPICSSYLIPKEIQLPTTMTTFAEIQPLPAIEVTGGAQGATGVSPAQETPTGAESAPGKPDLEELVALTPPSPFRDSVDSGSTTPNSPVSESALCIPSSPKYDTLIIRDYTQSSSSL
UniProt P05067, 672-713 limits assumed: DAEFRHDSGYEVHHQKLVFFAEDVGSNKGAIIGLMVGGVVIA
UniProt Q9P2P5, whole entry, looked up: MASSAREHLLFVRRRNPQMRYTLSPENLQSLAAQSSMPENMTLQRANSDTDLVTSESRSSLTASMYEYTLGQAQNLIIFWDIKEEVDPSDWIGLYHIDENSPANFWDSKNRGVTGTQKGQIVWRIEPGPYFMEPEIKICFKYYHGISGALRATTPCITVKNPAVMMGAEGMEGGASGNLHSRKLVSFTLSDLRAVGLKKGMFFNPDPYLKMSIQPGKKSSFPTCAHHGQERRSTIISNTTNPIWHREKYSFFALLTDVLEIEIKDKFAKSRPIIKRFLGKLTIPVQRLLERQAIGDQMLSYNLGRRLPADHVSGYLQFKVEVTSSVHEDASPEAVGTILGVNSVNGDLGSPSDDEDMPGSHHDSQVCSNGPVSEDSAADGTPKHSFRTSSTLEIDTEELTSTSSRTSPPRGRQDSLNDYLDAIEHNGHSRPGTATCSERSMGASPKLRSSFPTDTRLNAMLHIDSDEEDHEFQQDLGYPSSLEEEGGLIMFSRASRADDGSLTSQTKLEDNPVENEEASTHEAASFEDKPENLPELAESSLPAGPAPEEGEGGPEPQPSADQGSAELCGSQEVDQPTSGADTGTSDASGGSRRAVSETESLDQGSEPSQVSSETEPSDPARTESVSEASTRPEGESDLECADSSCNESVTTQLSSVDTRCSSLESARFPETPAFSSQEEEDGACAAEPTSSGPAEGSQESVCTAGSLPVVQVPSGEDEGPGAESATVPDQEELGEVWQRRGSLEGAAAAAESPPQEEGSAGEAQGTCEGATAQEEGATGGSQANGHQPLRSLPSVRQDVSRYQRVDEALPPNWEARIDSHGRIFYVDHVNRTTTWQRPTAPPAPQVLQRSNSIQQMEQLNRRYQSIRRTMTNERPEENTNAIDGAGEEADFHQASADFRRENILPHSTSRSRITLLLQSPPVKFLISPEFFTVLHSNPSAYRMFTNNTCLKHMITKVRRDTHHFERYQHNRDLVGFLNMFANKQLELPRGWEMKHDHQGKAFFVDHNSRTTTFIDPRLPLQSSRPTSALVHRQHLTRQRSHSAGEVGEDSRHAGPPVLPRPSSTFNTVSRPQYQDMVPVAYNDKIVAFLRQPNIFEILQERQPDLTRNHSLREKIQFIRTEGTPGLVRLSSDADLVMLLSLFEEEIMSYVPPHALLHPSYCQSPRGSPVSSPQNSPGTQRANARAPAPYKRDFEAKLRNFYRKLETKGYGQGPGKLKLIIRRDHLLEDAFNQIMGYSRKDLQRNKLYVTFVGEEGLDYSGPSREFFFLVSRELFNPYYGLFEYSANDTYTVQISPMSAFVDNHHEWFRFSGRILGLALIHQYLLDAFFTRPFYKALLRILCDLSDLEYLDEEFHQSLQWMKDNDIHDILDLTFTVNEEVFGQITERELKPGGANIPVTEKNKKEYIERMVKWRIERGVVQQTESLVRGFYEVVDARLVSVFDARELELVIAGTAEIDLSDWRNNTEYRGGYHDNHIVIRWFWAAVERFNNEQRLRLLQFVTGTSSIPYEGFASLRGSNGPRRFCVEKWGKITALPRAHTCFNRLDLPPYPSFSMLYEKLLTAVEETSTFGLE

Structure (SMILES) | tested on | test | test system | conditions | how to read | measurement | result
NC(=O)c1cn(-c2ccc(F)cc2)c2ccc(CN3CCS(=O)(=O)CC3)cc2c1=O | Grm2 | calcium mobilization, negative allosteric modulator |  | 30 µM, added: glutamate 100 µM | relative to: glutamate maximum | response | 1.33 ± 0.38%
Nc1ncnc2c1c(-c1ccc(C(=O)Nc3cc(C4CC4)ccn3)cc1)nn2[C@@H]1CCCN(C(=O)C2CC2)C1 | Tyrosine-protein kinase BTK, non-phosphorylated (BTK, Homo sapiens, UniProt Q06187) | TR-FRET binding kinetics |  | 37 °C, unphosphorylated enzyme |  | residence time | 4 min and 3.8 min
CC(C)(Cn1cc(CCC(=O)Nc2ccccc2)nn1)c1c[nH]c2ccccc12 | GLP1R | cAMP accumulation, positive allosteric modulator, HTRF |  | 0.6 µM, crude reaction product, added: GLP-1(9-36) at EC20 | relative to: BETP | Emax | 96.2%
CC(C)C[C@H](NC(=O)[C@@H]1CCCN1C(=O)[C@H](CCC(N)=O)NC(=O)c1ccccc1N)C(=O)N[C@@H](CCC(N)=O)C(=O)N[C@@H](CC(N)=O)C(=O)N[C@@H](CCCCN)C(=O)N[C@H](C(=O)N[C@@H](CCC(N)=O)C(=O)NCCNc1ccc([N+](=O)[O-])cc1[N+](=O)[O-])C(C)C | MIPEP | substrate, FRET peptide hydrolysis |  |  |  | kcat/Km | 21000 M⁻¹ s⁻¹
CC(=O)NCCCC[C@H](NC(=O)CNC(=O)[C@H](CCCNC(=N)N)NC(C)=O)C(=O)Nc1ccc2c(C)cc(=O)oc2c1 | HDAC8 (Homo sapiens, UniProt Q9BY41) | deacetylation, substrate |  | 25 °C, added: 150 nM enzyme |  | kcat/KM | 23 ± 6 M⁻¹ s⁻¹
O=C(O)c1cc(C(=O)N[C@@H](Cc2cnc[nH]2)C(=O)O)cc([C@H]2CCN[C@@H]2C(=O)O)c1 | Grik2 (Rattus norvegicus, UniProt P42260) | radioligand binding | Sf9 membranes | 10 µM, homomeric receptor, added: [3H]kainate |  | specific binding | 66 ± 1%
CCCCN(C(=O)C1CCN(S(=O)(=O)c2ccc3[nH]ncc3c2)CC1)[C@@H]1CCc2ccccc21 | CHRM5 (Homo sapiens, UniProt P08912) | positive allosteric modulator, calcium mobilization | CHO cells expressing human M5 | added: acetylcholine EC20 | relative to: ACh maximum | potentiation | 77 ± 3%
Nc1nc(SCc2ccc(Cl)cc2)nn1S(=O)(=O)c1ccc2[nH]c(=O)[nH]c2c1 | Lysophospholipase-like protein 1 | activator, gel-based ABPP, FP-rhodamine | HEK293 overexpressing Lysophospholipase-like protein 1 | 10 µM |  | activation | 89%
OCC1C(O)C(O)C(O)CN1CCCC(F)(F)COCc1ccc(-c2ccccc2)cc1 (stereo not drawn) | Beta-glucosidase (GBA2, Homo sapiens, UniProt Q9HCG7) |  |  |  | relative to: GCS IC50 over GBA2 IC50 | selectivity ratio | 8
COc1ccc(C(NS(=O)(=O)c2cccs2)C(=O)Nc2ccc(Cl)cc2)cc1 (stereo not drawn) | Uracil nucleotide/cysteinyl leukotriene receptor, long isoform (GPR17, Homo sapiens, UniProt Q13304) | calcium mobilization, antagonist | 1321N1 stably expressing GPR17 | fitted at highest concentration | higher = stronger inhibition | Emax | 109 ± 4.65%
COc1cc([C@@H]2c3cc4c(cc3[C@H](CC(C)C)[C@H]3COC(=O)[C@H]23)OCO4)cc(OC)c1OC | Leishmania |  | mouse splenocytes |  | relative to: CC50 over amastigote EC50 | selectivity index | 1.1
Nc1nc(SCc2ccc(Cl)cc2)nn1S(=O)(=O)c1ccc(C(F)(F)F)nc1 | Lysophospholipase-like protein 1 | activator, gel-based ABPP FP-rhodamine |  |  | relative to: DMSO | probe labelling | 1.3 fold
CC(=O)N[C@@H](C)C(=O)N[C@@H](CC(C)C)C(=O)N[C@H](C(=O)N[C@@H](CO)C(=O)N[C@@H](CCCNC(=N)N)C(=O)Nc1ccc2c(CC(N)=O)cc(=O)oc2c1)C(C)C | MALT1 (Homo sapiens, UniProt Q9UDY8) | substrate, fluorogenic peptide hydrolysis |  | pH 7.5, catalytic domain 285 or 294 nM |  | kcat/Km | 31000 M⁻¹ s⁻¹
CCOC(=O)/C=C/CNCCCN1c2ccccc2CCc2ccc(Br)cc21 | E3 ubiquitin-protein ligase NEDD4 | inhibitor, Ub-TR-FRET |  | 0.4115 µM, 1 h preincubation, HECT domain, added: ATP 2 mM | higher = more ubiquitination | ubiquitination TR-FRET signal AUC | 135000 a.u. and 133000 a.u.
N#Cc1cnc(Nc2nc3ccccc3o2)nc1C1CCCCC1 | Grm5 (Rattus norvegicus, UniProt P31424) | calcium mobilization, negative allosteric modulator |  | added: glutamate EC80 | relative to: glutamate maximum | maximal response | 3.8 ± 0.8%
COC(=O)[C@@]1(C)C=C(C(=O)Nc2cccc(C(=O)NC34CC(Nc5nccc(-c6cccnc6)n5)(C3)C4)c2)C(=O)CC1 | MAPK9 (Homo sapiens, UniProt P45984) | enzyme activity, inhibitor |  | 2.788e-05 µM |  | remaining activity | 0.999 fraction of control
COCCOCCOCCOC(=O)C(C#N)=Cc1ccc(N(C)C)cc1OC | Amyloid-beta precursor protein, aggregated Aβ42 (APP, Homo sapiens, UniProt P05067) | fluorescence after Aβ binding, fluorescence spectroscopy | PBS | 4 µM, added: aggregated Aβ(1-42) 5 µM |  | excitation maximum | 444 nm
Cc1cc(NC(=O)c2cccc(NC(=O)C3=CC(C)(C)CC3=O)c2)ccc1Nc1nccc(-c2cccnc2)n1 | MAPK8 | kinase activity, inhibitor |  | 0.1829 µM, unit not given, added: 10 mM GSH | relative to: DMSO | remaining activity | 0.594
Cc1ncc(CCc2ccc3c(c2)c(=O)c(C(N)=O)cn3-c2ccc(F)cc2)cn1 | Grm2 | calcium mobilization, negative allosteric modulator |  | 30 µM, added: glutamate 100 µM | relative to: glutamate maximum | response | 1.52 ± 0.26%
O=C(NCCc1ccccc1)C12CC1/C(=N\O)c1ccccc1O2 (stereo not drawn) | GRM4 | positive allosteric modulator, calcium mobilization | CHO expressing Gqi5 | concentration not given, added: glutamate EC20 | relative to: glutamate 1 mM | response | 92.9 ± 5.9%

Structure (SMILES) | tested on | test | test system | conditions | how to read | measurement | result
COc1ccc(NC(=O)CN2CCCN(S(=O)(=O)c3ccccc3Cl)CC2)c(OC)c1 | GRM4 | calcium mobilization, positive allosteric modulator | CHO cells with Gqi5 | added: glutamate | relative to: PHCCC maximal response | maximal response | 25.8%
Cc1ccc(C(=O)Nc2ccc(C(C)C)cc2C(=O)O)cc1S(=O)(=O)Nc1cccc(Cl)c1 | RPA1 N-terminal domain | binding, fluorescence polarisation competition |  | added: FITC-ATRIP probe |  | ligand efficiency | 0.22
Nc1ncc(-c2ccc3ncnc(N4CCc5cc(F)c(Cl)cc54)c3c2)cn1 |  |  | CD1 mouse, brain | intravenous, 5 mg/kg |  | Tmax | 4.98 min
CC(=O)N[C@@H](CCC(N)=O)C(=O)N[C@H](C(=O)N[C@@H](C)C(=O)N[C@@H](CCCNC(=N)N)C(=O)N[C@@H](CCCCNC(=O)CCc1ccc(N=Nc2ccc(N(C)C)cc2)cc1)C(=O)N[C@@H](CO)C(=O)N[C@H](C(=O)NCC(=O)NCC(=O)NCCCNC(=S)Nc1ccc2c(c1)C(=O)OC21c2ccc(O)cc2Oc2cc(O)ccc21)[C@@H](C)O)[C@@H](C)O | SIRT3 (Homo sapiens, UniProt Q9NTG7) | enzyme activity, substrate, plate reader kinetics |  | 2.5 µM, 60 nM enzyme, added: NAD+ |  | Km of NAD+ | 400 µM
CCOC(=O)/C=C/CNCCCCN1c2ccccc2CCc2ccc(Cl)cc21 | E3 ubiquitin-protein ligase HECW2 (HECW2, Homo sapiens, UniProt Q9P2P5) | inhibitor, Ub-TR-FRET |  | 100 µM, 1 h preincubation, DMSO up to 2%, added: ATP 2 mM | higher = more ubiquitination | ubiquitination TR-FRET signal AUC | 352000 a.u.
Cc1ccccc1Nc1ncnc2onc(-c3ccc(Cl)cc3)c12 | CFTR (Homo sapiens, UniProt P13569, del508-508) |  | FRT expressing ΔF508-CFTR |  | relative to: DMSO | iodide influx rate | 103 µM/s
O=C(N[C@H]1CCCC[C@@H]1O)[C@@H]1CN(Cc2ccc(-n3cccn3)cc2)c2ccccc2O1 | CHRM1 (Homo sapiens, UniProt P11229) | calcium mobilization, agonist | high-expression cell line |  | relative to: acetylcholine max | efficacy | 16%
CCC1NC(=O)C(CCCNC(=N)N)NC(=O)C(C)(NC(=O)C(C)C)CCCCNC(=O)C(c2ccccc2)NC1=O (stereo not drawn) | WD repeat-containing protein 5, with MLL4, RbBP5 (WDR5, Homo sapiens, UniProt P61964) | Ni-NTA pull-down | HeLa nuclear extract | up to 25 µM, added: 10 µM His-MLL4 |  | MLL4-RbBP5 binding | no effect
CC(C(=O)/C=C/c1ccc(O)c(OC(F)(F)F)c1)C(=O)/C=C/c1ccc(O)c(OC(F)(F)F)c1 | APP (Homo sapiens, UniProt P05067) | SDS-PAGE western blot, measured: Aβ1-42 species 75-200 kDa |  | 30 µM, 24 h, 37 °C, added: Aβ 10 µM | relative to: DMSO control | Aβ band density | 437 ± 100%
Cc1cc(NC(=O)c2cccc(NC(=O)C3=CC(C)(C)CCC3=O)c2)ccc1Nc1nccc(-c2cccnc2)n1 | MAPK8 | kinase activity, inhibitor |  | 0.02032 µM, unit not given, added: 10 mM GSH | relative to: DMSO | remaining activity | 0.873
CC(=O)N[C@H]1[C@H]2OC[C@](CO)(O2)[C@H](O)[C@@H]1O | Asialoglycoprotein receptor 1 (Homo sapiens, UniProt P07306) | binding, surface plasmon resonance |  |  |  | ligand efficiency | 0.45
CC[C@H](C)[C@H](NC(=O)c1ccccc1N)C(=O)N[C@@H](CCCCN)C(=O)N[C@@H](CCC(N)=O)C(=O)N[C@@H](CO)C(=O)N[C@@H](CO)C(=O)N[C@@H](CC(C)C)C(=O)N[C@@H](CC(C)C)C(=O)N[C@@H](CCCCNc1ccc([N+](=O)[O-])cc1[N+](=O)[O-])C(N)=O | MIPEP | substrate, FRET peptide hydrolysis |  |  |  | kcat | 0.055 s⁻¹
CCOC(=O)/C=C/CNCCCCCN1c2ccccc2CCc2ccc(Cl)cc21 | E3 ubiquitin-protein ligase NEDD4 | inhibitor, Ub-TR-FRET |  | 3.704 µM, 1 h preincubation, HECT domain, added: ATP 2 mM | higher = more ubiquitination | ubiquitination TR-FRET signal AUC | 61700 a.u. and 63600 a.u. and 44600 a.u. and 60700 a.u. and 35500 a.u. and 47500 a.u.
Cc1ncsc1-c1ccc([C@H](C)NC(=O)[C@@H]2C[C@@H](O)CN2C(=O)[C@@H](NC(=O)CCCCCCC(=O)N2CCN(C[C@]3(C)CCC(c4ccc(Cl)cc4)=C(CN4CCN(c5ccc(C(=O)NS(=O)(=O)c6ccc(N[C@H](CCN7CCOCC7)CSc7ccccc7)c(S(=O)(=O)C(F)(F)F)c6)cc5)CC4)C3)CC2)C(C)(C)C)cc1 |  | measured: Cdkn2a | naturally aged mice, liver | intraperitoneal, 5 mg/kg every 3 days |  | mRNA level | decreased
CCc1ccc(NC(=O)c2ccc(C)c(S(=O)(=O)Nc3cccc(Cl)c3)c2)c(C(=O)O)c1 | RPA1 N-terminal domain | binding, fluorescence polarisation competition |  | added: FITC-ATRIP probe |  | ligand efficiency | 0.23
CN1CC[C@H](c2c(O)cc(O)c3c(=O)cc(-c4ccccc4F)oc23)[C@H](O)C1 | CDK7 (Homo sapiens, UniProt P50613) | kinase activity, inhibitor, kinase panel |  | concentration not given |  | activity class | inactive
CC(C)(Cn1cc(CNC(=O)Cc2ccccc2)nn1)c1c[nH]c2ccccc12 | GLP1R | cAMP accumulation, positive allosteric modulator, HTRF |  | 0.6 µM, purified compound, added: GLP-1(9-36) at EC20 | relative to: BETP | Emax | 98 ± 2%
COc1ccc(S(=O)(=O)N2CCCN(CC(=O)Nc3ccc(OC)cc3OC)CC2)cc1 | GRM4 | calcium mobilization, positive allosteric modulator | CHO cells with Gqi5 | added: glutamate | relative to: PHCCC maximal response | maximal response | 69.5%
CCOC(=O)/C=C/CNCCCN1c2ccccc2CCc2ccccc21 | E3 ubiquitin-protein ligase NEDD4 | inhibitor, Ub-TR-FRET |  | 0.005081 µM, 1 h preincubation, HECT domain, added: ATP 2 mM | higher = more ubiquitination | ubiquitination TR-FRET signal AUC | 130000 a.u. and 128000 a.u.

For quick reference, copied from above:
Structure (SMILES) | tested on | test | test system | conditions | how to read | measurement | result
COCCOCCOCCOC(=O)C(C#N)=Cc1ccc(N(C)C)cc1OC | Amyloid-beta precursor protein, aggregated Aβ42 (APP, Homo sapiens, UniProt P05067) | fluorescence after Aβ binding, fluorescence spectroscopy | PBS | 4 µM, added: aggregated Aβ(1-42) 5 µM |  | excitation maximum | 444 nm
Cc1cc(NC(=O)c2cccc(NC(=O)C3=CC(C)(C)CC3=O)c2)ccc1Nc1nccc(-c2cccnc2)n1 | MAPK8 | kinase activity, inhibitor |  | 0.1829 µM, unit not given, added: 10 mM GSH | relative to: DMSO | remaining activity | 0.594
Cc1ncc(CCc2ccc3c(c2)c(=O)c(C(N)=O)cn3-c2ccc(F)cc2)cn1 | Grm2 | calcium mobilization, negative allosteric modulator |  | 30 µM, added: glutamate 100 µM | relative to: glutamate maximum | response | 1.52 ± 0.26%
